Assay results collected from several papers.
Lines come from different studies, so protocols differ.
T1: RNA aptamer; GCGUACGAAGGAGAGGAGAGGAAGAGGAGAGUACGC
T2: RNA aptamer; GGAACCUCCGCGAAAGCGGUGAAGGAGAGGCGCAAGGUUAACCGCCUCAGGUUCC
T3: RNA aptamer; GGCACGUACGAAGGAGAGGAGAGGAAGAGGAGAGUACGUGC
T4: RNA aptamer, L4 loop replaced by UUCG; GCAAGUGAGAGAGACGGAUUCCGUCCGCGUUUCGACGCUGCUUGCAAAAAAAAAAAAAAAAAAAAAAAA
T5: RNA aptamer; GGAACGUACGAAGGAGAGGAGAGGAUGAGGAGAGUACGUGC
T6: RNA aptamer; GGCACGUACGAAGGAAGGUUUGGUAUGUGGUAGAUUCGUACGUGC
T7: RNA aptamer; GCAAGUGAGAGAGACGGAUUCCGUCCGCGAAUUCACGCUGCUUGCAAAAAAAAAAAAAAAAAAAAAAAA

CN1C=C/C(=C\c2sc3ccccc3[n+]2CC(=O)NCc2ccccc2-n2cccn2)c2ccccc21  binding (T1, RNA aptamer; X-ray crystallography): binds
CN(C)c1ccc2c(-c3ccccc3C(=O)[N-]S(=O)(=O)N(C)C)c3ccc(=[N+](C)C)cc-3oc2c1  Kd (T2, RNA aptamer; fluorescence titration, quadratic fit; Na+ 1 M, no Mg2+, added: EDTA 1 mM): 110 nM
COc1ccc(-c2ccc3c(c2)C(=Cc2sc4ccccc4[n+]2CC(=O)NCCOCCOCCOCCNC(=O)CCCC[C@@H]2SC[C@@H]4NC(=O)N[C@@H]42)C=CN3C)cc1  Kd (T3, RNA aptamer; fluorescence titration): 0.2 nM
CN1C=C/C(=C\c2sc3ccccc3[n+]2CC(=O)NCc2ccccc2)c2ccccc21  Kd (T1, RNA aptamer; fluorescence titration; apparent): 0.27 nM
Fc1ccc(Nc2nc(NCc3ncccn3)nc(Nc3ccccc3)n2)cc1  Kd (T4, RNA aptamer, L4 loop replaced by UUCG; SPR; 25 °C, read off a plot): 25 nM
CN1C=C/C(=C\c2sc3ccccc3[n+]2CC(=O)NCc2c(F)cccc2-n2cccn2)c2ccccc21  binding (T1, RNA aptamer; X-ray crystallography): binds
CN1C=CC(=Cc2sc3ccccc3[n+]2CC(=O)NCCOCCOCCOCCNC(=O)CCCC[C@@H]2SC[C@@H]3NC(=O)N[C@@H]32)c2ccccc21  Kd (T5, RNA aptamer; fluorescence titration): 2.89 nM
CN(C)c1ccc2c(-c3cc(C(=O)O)ccc3C(=O)[N-]S(=O)(=O)N(C)C)c3ccc(=[N+](C)C)cc-3oc2c1  Kd (T2, RNA aptamer; fluorescence titration, quadratic fit; room temperature, K+ 125 mM, added: Mg2+ 1 mM): 120 nM
COc1ccc(-c2ccc3c(c2)C(=Cc2sc4ccccc4[n+]2C)C=CN3C)cc1  Kd (T6, RNA aptamer; fluorescence titration): 9.47 nM
Fc1ccc(Nc2nc(NCc3ncccn3)nc(Nc3ccc(F)cc3)n2)cc1  Kd (T7, RNA aptamer; SPR; 25 °C): 12 nM

Some of these lines once more:
Fc1ccc(Nc2nc(NCc3ncccn3)nc(Nc3ccc(F)cc3)n2)cc1  Kd (T7, RNA aptamer; SPR; 25 °C): 12 nM
